Measured values gathered from unrelated publications.
Every numbered part comes from another study and shows a few of its results, in no order.

Block 1
Target: Histone acetyltransferase KAT6A, both winged helices, GST fusion (KAT6A, Homo sapiens, UniProt Q92794, residues 1-181)
Method: protein binding microarray
Molecule type: double-stranded DNA, one strand shown
Matrix: in vitro
Tested at: not given
Notes: 8-mer, flanks averaged, mean of 2 arrays, mostly near background
Baseline: not given
Direction: higher = stronger binding
Quantity: E-score
Construct (chain): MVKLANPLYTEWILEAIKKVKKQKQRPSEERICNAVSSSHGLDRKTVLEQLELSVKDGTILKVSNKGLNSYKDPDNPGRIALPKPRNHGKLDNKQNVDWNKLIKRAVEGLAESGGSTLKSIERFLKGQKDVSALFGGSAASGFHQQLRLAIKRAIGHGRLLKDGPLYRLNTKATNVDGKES
CGTGAGCA: 0.174
CGCCGCTC: 0.274
AGCGTAAT: 0.0256
ATTATCGA: -0.106
ATGAGCAT: -0.0388
TCCGTGCA: 0.196
CCCCGGCG: 0.254
ACCTCAAA: 0.011

Block 2
Target: TATA-box-binding protein 1 (TBP1, Arabidopsis thaliana, UniProt P28147, residues 1-200, full length assumed)
Method: protein-binding microarray
Molecule type: double-stranded DNA, one strand shown
Matrix: in vitro
Tested at: not given
Notes: k-mer, scored over probes, only values ≥0.25
Direction: higher = stronger binding
Quantity: E-score
Residues (chain): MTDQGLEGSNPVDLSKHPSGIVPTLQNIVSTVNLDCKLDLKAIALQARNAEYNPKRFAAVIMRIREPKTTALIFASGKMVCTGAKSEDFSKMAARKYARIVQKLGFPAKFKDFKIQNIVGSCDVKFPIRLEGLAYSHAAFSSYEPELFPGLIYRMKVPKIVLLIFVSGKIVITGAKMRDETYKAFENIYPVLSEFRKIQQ
AATTTTA: 0.358
AAATTAA: 0.328
TAAGTAA: 0.314

Block 3
Target: Interferon regulatory factor 3, full length, phosphomimetic (IRF3, Homo sapiens, UniProt Q14653, residues 1-427, S386D/S396D/S398D/S402D/T404D/S405D)
Method: protein-binding microarray
Molecule type: double-stranded DNA, one strand shown
Matrix: in vitro
Tested at: 2540 nM top
Notes: 60-bp whole probe
With: salmon DNA 0.4 mg/ml
Baseline: random background probes
Direction: higher = stronger binding
Quantity: fitted relative affinity
All sequences stand within: GCCTAGCAC … GTCTTGATTCGCTTGACGCTGCTG
Construct (chain): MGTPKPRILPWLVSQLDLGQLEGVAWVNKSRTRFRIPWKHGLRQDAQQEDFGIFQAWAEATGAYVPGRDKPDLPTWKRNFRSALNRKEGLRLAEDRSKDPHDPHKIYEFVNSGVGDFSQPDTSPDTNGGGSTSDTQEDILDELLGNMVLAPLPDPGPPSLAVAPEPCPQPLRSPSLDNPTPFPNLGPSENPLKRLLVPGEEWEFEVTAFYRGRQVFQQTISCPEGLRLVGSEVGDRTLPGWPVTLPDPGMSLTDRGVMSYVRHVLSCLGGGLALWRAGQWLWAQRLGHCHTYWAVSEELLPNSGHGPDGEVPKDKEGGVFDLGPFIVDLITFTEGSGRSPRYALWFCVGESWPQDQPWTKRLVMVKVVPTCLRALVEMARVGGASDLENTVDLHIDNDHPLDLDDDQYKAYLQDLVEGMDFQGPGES
TTAGGACTGGTCTATCGGTTAGTGCTA: -0.563 z-score
AGGATCCTGGGAGGGAGAGCGTGCTAG: -0.241 z-score
TCAAGTCCCACATCTCTGACTGTGCTA: 0.226 z-score
TTAGATTTCAGACTGGAATAGTGCTAG: 0.703 z-score
GACGGACTGGGTTTCGGGTCGTGCTAG: 1.67 z-score
TTAGGACTGGAGTTTCGGTTAGTGCTA: 3.31 z-score
TCAACTTTGGAGATGACACTGTGCTAG: -0.188 z-score
TTAGGACTGTTTCTCCTTTAGTGCTAG: 1.64 z-score

Mixed results
PhoQ, residues 284 288 289 292 302 303 TNASYF
fold induction (PhoP, residues 12 14 15 18 19 SEGLL (Escherichia coli, UniProt P23836); Sort-seq, refers to: YFP reporter; E. coli; PhoQ-PhoP variant library, with: 10 µM Mg2+; baseline: high Mg2+ state, higher = stronger signaling): 10.1

For quick reference, copied from above (mixed results):
PhoQ, residues 284 288 289 292 302 303 TNASYF
fold induction (PhoP, residues 12 14 15 18 19 SEGLL (Escherichia coli, UniProt P23836); Sort-seq, refers to: YFP reporter; E. coli; PhoQ-PhoP variant library, with: 10 µM Mg2+; baseline: high Mg2+ state, higher = stronger signaling): 10.1
